Published values from different studies.
Each numbered part is a random draw from the data of one study; scales do not carry over between parts. Positions count from the first letter of the parent shown.
Chain of UniProt Q8IVH8 (whole entry, looked up): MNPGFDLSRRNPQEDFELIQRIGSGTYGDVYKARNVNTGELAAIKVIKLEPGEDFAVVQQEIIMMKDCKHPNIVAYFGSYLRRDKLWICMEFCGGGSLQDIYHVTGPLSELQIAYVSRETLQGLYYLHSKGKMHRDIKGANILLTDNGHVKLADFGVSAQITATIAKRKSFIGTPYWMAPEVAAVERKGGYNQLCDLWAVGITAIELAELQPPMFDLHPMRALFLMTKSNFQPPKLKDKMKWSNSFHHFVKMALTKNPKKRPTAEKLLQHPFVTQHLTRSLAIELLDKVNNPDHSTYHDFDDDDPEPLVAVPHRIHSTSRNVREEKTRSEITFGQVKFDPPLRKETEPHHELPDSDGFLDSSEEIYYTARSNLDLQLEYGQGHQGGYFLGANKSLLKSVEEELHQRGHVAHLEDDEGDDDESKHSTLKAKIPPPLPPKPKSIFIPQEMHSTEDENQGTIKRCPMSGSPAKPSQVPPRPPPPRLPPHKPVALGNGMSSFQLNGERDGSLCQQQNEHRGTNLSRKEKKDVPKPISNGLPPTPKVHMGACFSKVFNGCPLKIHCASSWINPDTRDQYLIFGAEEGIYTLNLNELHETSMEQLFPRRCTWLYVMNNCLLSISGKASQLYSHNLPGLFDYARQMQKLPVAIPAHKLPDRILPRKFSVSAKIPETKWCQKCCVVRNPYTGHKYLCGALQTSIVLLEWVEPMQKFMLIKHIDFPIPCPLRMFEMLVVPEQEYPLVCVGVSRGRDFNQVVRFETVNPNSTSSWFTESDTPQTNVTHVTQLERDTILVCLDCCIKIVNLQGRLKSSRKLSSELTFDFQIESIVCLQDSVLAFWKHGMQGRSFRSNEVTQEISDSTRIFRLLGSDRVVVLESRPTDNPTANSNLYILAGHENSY
Chain of UniProt Q9H4B4 (whole entry, looked up): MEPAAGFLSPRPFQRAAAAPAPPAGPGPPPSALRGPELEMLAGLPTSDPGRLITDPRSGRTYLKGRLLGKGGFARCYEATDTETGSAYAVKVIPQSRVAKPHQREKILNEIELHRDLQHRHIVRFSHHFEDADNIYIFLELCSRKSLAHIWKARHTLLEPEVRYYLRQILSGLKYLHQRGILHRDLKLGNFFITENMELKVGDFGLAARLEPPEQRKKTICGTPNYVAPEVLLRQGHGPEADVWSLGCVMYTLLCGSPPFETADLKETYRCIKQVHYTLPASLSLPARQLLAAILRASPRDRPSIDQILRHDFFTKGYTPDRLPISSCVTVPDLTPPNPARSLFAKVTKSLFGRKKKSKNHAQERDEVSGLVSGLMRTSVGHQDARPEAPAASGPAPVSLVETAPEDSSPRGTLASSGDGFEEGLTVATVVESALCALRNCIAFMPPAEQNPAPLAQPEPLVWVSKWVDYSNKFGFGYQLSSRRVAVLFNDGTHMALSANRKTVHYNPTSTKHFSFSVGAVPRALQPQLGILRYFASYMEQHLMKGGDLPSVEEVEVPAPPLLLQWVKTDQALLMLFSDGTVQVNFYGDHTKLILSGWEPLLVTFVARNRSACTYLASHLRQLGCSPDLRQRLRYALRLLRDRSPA
Chain of UniProt P37173 (whole entry, looked up): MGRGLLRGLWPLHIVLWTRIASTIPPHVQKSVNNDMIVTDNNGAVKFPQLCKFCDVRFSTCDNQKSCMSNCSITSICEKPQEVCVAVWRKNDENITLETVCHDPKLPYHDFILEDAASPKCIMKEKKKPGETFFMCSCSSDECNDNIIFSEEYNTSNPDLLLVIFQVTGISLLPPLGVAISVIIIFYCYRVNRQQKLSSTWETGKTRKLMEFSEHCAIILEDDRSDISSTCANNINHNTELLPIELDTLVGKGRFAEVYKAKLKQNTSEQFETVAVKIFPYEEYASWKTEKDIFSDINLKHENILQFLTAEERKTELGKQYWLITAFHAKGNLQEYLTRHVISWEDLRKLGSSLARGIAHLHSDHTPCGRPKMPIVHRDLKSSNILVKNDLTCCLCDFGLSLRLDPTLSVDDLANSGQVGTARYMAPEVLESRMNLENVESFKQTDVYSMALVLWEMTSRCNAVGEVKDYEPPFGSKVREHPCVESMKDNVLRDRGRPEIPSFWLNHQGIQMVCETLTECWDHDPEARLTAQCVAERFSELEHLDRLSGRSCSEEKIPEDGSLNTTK
Chain of UniProt Q9BUB5 (whole entry, looked up): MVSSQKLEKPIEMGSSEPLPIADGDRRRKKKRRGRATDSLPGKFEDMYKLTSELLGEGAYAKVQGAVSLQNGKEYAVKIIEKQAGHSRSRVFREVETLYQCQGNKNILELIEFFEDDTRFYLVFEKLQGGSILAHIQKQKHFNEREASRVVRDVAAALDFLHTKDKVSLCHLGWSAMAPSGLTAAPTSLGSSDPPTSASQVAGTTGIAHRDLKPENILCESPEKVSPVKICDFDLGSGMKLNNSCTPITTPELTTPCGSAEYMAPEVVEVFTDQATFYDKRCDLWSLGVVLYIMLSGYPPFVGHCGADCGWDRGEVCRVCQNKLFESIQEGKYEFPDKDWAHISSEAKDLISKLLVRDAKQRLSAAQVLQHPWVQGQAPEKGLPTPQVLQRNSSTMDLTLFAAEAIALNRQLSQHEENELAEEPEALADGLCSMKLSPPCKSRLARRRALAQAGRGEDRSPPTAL
Chain of UniProt P22607 (whole entry, unmodified, looked up): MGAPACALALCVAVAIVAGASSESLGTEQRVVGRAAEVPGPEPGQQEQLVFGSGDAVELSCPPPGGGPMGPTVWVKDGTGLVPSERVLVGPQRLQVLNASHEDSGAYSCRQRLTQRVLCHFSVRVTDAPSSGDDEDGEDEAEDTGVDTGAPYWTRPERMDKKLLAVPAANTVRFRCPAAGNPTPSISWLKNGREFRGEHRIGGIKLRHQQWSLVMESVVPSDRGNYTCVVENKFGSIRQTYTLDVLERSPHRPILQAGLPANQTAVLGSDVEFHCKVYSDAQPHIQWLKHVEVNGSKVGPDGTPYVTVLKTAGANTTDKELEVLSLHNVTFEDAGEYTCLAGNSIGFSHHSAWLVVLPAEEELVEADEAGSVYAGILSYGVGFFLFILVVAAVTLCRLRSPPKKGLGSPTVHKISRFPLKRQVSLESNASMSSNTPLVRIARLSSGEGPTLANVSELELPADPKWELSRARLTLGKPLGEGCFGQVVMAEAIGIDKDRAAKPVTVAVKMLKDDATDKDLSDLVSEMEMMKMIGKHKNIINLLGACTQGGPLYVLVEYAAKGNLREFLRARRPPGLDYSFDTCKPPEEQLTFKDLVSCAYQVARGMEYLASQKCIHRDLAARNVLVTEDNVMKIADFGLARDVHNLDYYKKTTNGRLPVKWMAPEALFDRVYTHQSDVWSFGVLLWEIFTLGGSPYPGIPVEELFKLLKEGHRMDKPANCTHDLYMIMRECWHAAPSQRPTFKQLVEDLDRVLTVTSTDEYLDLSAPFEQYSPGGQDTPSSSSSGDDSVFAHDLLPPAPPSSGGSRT
Chain of UniProt P49336 (whole entry, looked up): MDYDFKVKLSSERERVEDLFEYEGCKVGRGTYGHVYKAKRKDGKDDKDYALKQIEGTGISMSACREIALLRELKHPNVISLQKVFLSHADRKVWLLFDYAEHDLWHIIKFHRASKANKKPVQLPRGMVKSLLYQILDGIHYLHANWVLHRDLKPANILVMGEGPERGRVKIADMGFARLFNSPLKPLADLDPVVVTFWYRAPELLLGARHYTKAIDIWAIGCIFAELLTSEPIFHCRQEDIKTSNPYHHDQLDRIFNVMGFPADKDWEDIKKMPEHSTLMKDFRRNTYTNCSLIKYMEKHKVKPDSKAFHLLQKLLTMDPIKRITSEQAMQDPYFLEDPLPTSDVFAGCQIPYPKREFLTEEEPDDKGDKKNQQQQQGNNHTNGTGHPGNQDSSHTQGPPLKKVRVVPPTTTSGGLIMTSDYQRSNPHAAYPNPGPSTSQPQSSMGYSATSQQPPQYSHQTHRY
Chain of UniProt Q96PN8 (whole entry, looked up): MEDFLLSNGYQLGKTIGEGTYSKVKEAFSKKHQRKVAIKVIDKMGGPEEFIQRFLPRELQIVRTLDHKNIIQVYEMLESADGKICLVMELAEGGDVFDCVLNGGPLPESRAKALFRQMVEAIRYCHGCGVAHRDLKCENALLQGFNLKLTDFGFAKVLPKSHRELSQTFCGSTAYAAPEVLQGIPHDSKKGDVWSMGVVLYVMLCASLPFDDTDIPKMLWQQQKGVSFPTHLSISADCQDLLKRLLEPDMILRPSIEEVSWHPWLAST

Sample 1
SMILES: O=c1nc(-c2ccccn2)sc2ccccc12
Method: competition with immobilised ligand
Tested at: 1 µM
| target | test | remaining binding |
| --- | --- | --- |
| WNK2 (Homo sapiens, UniProt Q9Y3S1) | binding | 100% |
| EGFR (Homo sapiens, UniProt P00533) | cell-free assay | 70% |
| FLT3 (Homo sapiens, UniProt P36888, ITD) | binding | 100% |
| STK35 (Homo sapiens, UniProt Q8TDR2) | binding | 79% |
| PLK3 (Homo sapiens, UniProt Q9H4B4) | binding | 82% |
| FGFR3 (Homo sapiens, UniProt P22607, G697C) | cell-free assay | 100% |
| MKNK1 (Homo sapiens, UniProt Q9BUB5) | binding | 89% |
| MAP4K3 (Homo sapiens, UniProt Q8IVH8) | binding | 90% |
| EIF2AK1 (Homo sapiens, UniProt Q9BQI3) | binding | 97% |
| STK36 (Homo sapiens, UniProt Q9NRP7) | binding | 82% |
| MARK3 (Homo sapiens, UniProt P27448) | binding | 89% |
| CDK8 (Homo sapiens, UniProt P49336) | binding | 36% |
| TSSK3 (Homo sapiens, UniProt Q96PN8) | binding | 86% |
| NEK3 (Homo sapiens, UniProt P51956) | binding | 72% |
| MAPK4 (Homo sapiens, UniProt P31152) | binding | 100% |
| TGFBR2 (Homo sapiens, UniProt P37173) | cell-free assay | 100% |
| PIK3CG (Homo sapiens, UniProt P48736) | cell-free assay | 100% |
| PHKG2 (Homo sapiens, UniProt P15735) | cell-free assay | 77% |

Sample 2
Target: PABPC1L2, full length, GST fusion (mouse, UniProt A0ABA7IW68)
Method: RNAcompete
Molecule type: RNA
Sample: in vitro
Tested at: 20 nM
Setting: 7-mer, probes averaged, single round
Baseline: mean of 7-mers
Direction: higher = stronger binding
Construct (chain): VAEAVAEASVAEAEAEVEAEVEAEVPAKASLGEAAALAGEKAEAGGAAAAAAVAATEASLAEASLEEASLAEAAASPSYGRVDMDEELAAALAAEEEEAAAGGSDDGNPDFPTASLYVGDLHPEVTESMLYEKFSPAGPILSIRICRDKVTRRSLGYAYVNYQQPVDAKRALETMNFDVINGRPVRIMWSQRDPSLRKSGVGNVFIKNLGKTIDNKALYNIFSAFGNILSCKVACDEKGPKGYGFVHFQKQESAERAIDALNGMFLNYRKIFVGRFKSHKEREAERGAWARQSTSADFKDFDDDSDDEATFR
| Strand | 7-mer Z-score |
| --- | --- |
| UAGCAGU | -0.311 |
| AAUACCC | 0.0605 |
| UUCGGCA | -0.159 |
| UCUGGUG | -0.224 |
| AUCAAUC | 0.0279 |
| CCACGGA | 0.0968 |
| GUCACGC | -0.168 |
| UAAUGUC | -0.24 |

Sample 3
Target: Serine/threonine-protein kinase D3 (PRKD3, Homo sapiens, UniProt O94806)
Chain of UniProt O94806 (whole entry, looked up): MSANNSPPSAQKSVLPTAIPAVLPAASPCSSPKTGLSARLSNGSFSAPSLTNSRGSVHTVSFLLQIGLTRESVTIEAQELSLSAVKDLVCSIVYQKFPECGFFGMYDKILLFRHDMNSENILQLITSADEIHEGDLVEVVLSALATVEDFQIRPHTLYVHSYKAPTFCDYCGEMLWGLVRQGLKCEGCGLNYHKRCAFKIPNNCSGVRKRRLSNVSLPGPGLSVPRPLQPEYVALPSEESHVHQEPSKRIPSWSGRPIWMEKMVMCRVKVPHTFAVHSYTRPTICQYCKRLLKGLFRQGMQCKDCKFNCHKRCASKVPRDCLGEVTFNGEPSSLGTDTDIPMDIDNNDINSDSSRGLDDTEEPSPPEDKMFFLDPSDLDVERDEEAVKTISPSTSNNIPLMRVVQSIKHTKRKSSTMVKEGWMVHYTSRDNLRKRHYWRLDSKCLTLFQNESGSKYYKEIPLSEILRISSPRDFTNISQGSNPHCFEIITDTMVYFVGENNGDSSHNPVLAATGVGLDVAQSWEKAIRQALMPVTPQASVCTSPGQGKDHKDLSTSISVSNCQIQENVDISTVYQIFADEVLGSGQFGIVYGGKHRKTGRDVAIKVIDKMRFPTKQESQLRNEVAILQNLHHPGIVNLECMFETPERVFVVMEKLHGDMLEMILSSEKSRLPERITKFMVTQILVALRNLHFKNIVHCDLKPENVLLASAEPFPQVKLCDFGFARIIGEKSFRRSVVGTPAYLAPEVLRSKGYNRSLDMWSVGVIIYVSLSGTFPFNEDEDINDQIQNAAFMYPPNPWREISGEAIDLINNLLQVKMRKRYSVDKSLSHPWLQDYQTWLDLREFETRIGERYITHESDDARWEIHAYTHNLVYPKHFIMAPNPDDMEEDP
Observed: enzyme activity
Action: inhibitor
Tested at: 0.5 µM
Baseline: control
| Compound | remaining activity |
| --- | --- |
| O=C1c2ccccc2-c2n[nH]c3cccc1c23 | 31.2% |
| O=C(NC(NC(=S)Nc1ccc(F)c([N+](=O)[O-])c1)C(Cl)(Cl)Cl)C(c1ccccc1)c1ccccc1 (stereo not shown) | 98.5% |
| c1ccc(-c2[nH]ncc2-c2ccnc3ccccc23)nc1 | 56.1% |
| CCN(CC)CCNC(=O)c1c(C)[nH]c(/C=C2\C(=O)Nc3ccc(F)cc32)c1C | 16.6% |
| c1ccc(-c2cnc(Nc3ccc(OCCN4CCCC4)cc3)s2)cc1 | 74% |
| COc1cc2ncnc(Nc3cccc(Cl)c3)c2cc1OC | 86.5% |
| CCOc1nc(NC(=O)Cc2cc(OC)ccc2OC)cc(N)c1C#N | 83.7% |
| Ic1cccc(CSc2nnc(-c3ccncc3)o2)c1 | 98.4% |
| C[C@@H]1CCN(C(=O)CC#N)C[C@@H]1N(C)c1ncnc2[nH]ccc12 | 89.8% |

Sample 4
Target: TEF, bZIP domain (human)
Method: DHFR protein complementation
Sample: yeast
Setting: single substitutions, most at no-binding floor
Baseline: wild-type JUN-FOS pair
Direction: higher = stronger binding
Parent: JUN, bZIP domain (human); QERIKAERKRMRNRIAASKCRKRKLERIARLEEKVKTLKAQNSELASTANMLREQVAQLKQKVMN; partner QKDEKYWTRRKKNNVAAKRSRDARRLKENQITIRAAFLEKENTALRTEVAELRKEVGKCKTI
| Substitution | binding fitness [natural log] |
| --- | --- |
| K36F | -1.58 |
| K39D | -1.47 |
| T48E | -1.54 |
| T48R | -1.39 |
| A40C | -1.26 |
| A40D | -1.45 |
| V56N | -1.56 |
| L38P | -1.44 |
